Experimental data pooled from the literature.
Values joined by “and” are separate records of one study, mostly repeats; a detail may differ. ± marks the error that the study gave.
OPRD1: Delta-type opioid receptor (OPRD1, Homo sapiens, UniProt P41143)
Sequence of UniProt P41143 (whole entry, looked up): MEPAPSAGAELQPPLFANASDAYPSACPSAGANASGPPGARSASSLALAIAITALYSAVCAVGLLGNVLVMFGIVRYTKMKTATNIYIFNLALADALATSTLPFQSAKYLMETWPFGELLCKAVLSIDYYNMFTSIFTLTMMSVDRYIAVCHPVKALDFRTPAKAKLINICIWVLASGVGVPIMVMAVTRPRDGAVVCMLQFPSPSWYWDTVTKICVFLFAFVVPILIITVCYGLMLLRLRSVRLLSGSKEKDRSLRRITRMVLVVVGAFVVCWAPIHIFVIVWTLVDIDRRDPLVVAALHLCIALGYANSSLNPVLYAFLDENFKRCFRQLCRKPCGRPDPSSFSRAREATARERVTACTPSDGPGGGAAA
GABA-A receptor; alpha-1/beta-3/gamma-2: GABA-A receptor; alpha-1/beta-3/gamma-2 (Homo sapiens, UniProt P14867+P18507+P28472)
Sequence of UniProt Q01959 (whole entry, looked up): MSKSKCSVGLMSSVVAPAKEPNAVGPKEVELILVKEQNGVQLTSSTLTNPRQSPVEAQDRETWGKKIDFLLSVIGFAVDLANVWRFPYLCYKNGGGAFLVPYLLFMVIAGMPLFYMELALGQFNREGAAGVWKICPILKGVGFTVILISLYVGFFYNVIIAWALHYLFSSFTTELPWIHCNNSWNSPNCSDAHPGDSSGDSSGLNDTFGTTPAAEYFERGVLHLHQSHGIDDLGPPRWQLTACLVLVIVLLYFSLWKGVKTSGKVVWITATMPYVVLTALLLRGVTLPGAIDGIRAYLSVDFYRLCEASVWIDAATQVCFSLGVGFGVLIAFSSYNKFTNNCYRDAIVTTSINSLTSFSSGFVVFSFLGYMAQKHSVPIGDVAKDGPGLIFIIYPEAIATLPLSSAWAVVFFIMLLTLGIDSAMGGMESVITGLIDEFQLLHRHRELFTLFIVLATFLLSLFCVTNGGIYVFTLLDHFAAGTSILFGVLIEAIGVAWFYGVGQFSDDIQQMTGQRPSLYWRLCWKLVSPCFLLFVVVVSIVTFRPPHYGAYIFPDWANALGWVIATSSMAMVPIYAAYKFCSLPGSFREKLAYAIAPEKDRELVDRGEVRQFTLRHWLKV
Sequence of UniProt P28472 (whole entry, looked up): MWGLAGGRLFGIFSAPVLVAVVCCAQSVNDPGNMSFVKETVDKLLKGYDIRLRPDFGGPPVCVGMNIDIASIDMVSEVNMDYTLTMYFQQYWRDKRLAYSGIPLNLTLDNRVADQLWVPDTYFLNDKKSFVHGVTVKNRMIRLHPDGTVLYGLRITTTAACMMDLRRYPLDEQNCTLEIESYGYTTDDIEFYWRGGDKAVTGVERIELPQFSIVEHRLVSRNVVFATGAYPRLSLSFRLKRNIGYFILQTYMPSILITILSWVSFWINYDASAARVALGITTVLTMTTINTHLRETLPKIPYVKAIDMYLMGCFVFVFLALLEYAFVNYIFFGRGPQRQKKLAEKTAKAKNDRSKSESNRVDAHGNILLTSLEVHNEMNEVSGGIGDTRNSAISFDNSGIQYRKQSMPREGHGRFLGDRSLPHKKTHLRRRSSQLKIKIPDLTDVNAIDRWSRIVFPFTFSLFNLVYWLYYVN
Sequence of UniProt P14867 (whole entry, looked up): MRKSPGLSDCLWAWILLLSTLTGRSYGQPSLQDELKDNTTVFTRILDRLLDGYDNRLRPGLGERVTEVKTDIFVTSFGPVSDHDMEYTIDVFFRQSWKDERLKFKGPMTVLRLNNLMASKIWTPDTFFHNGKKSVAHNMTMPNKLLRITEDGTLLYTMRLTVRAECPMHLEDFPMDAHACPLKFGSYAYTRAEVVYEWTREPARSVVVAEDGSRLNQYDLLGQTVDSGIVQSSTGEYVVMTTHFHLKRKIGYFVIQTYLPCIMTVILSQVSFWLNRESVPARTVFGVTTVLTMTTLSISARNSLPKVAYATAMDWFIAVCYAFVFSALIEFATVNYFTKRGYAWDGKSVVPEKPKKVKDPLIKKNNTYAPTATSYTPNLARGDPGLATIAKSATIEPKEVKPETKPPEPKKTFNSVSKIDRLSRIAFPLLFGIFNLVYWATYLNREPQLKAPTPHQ
Sequence of UniProt P18507 (whole entry, looked up): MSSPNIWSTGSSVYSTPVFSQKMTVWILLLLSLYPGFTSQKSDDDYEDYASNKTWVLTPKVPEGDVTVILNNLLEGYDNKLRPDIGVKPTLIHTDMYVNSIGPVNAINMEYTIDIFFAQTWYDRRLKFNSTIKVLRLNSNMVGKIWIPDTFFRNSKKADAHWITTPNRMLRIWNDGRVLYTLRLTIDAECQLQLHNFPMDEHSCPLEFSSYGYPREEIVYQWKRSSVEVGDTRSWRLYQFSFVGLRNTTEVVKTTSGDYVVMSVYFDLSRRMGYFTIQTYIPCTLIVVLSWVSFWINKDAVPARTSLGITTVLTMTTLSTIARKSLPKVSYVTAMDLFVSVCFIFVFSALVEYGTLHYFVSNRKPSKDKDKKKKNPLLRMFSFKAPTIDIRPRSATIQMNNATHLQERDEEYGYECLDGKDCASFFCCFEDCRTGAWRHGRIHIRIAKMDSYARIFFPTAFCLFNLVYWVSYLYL
Sequence of UniProt A2AIR5 (whole entry, looked up): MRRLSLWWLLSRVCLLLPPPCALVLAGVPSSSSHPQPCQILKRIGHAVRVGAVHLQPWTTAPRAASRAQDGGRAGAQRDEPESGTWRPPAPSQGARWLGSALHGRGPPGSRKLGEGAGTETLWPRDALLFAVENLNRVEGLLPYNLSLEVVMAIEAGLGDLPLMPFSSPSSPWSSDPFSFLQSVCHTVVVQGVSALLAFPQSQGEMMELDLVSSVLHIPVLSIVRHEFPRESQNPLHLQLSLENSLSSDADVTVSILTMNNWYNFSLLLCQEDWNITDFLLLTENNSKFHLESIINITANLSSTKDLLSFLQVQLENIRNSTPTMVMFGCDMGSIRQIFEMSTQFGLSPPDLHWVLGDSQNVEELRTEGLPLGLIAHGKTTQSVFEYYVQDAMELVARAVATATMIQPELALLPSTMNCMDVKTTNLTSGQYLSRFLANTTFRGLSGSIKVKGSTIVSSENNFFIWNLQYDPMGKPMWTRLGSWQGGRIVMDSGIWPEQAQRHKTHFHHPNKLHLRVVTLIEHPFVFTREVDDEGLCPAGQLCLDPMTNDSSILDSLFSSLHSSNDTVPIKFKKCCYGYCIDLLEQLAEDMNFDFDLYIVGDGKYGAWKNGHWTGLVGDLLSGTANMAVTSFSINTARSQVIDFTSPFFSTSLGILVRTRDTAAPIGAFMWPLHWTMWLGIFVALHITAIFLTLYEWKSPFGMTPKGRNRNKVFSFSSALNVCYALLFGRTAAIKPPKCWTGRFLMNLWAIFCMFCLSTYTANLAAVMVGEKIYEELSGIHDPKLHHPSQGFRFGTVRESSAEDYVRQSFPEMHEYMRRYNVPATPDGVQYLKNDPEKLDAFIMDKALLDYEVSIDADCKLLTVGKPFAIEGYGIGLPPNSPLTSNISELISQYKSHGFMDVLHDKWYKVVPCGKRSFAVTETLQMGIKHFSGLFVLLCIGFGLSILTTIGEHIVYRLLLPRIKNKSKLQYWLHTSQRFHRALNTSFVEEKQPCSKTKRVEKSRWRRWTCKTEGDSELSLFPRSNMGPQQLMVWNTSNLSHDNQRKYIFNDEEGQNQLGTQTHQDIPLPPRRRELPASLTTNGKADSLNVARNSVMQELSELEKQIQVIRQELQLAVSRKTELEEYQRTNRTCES
Sequence of UniProt P47869 (whole entry, looked up): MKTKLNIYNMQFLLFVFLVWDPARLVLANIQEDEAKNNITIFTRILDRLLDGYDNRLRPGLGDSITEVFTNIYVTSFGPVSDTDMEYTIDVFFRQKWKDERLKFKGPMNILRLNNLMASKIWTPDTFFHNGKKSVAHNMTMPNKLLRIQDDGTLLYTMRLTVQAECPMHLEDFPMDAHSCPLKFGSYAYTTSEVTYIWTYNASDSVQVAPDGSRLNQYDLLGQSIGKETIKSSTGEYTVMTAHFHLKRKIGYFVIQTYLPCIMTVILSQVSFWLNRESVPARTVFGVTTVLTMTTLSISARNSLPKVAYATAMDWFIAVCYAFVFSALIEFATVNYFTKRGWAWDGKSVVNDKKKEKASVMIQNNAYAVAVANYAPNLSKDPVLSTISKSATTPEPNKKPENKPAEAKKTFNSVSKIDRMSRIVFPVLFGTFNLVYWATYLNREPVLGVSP
Sequence of UniProt Q8NET8 (whole entry, unmodified, looked up): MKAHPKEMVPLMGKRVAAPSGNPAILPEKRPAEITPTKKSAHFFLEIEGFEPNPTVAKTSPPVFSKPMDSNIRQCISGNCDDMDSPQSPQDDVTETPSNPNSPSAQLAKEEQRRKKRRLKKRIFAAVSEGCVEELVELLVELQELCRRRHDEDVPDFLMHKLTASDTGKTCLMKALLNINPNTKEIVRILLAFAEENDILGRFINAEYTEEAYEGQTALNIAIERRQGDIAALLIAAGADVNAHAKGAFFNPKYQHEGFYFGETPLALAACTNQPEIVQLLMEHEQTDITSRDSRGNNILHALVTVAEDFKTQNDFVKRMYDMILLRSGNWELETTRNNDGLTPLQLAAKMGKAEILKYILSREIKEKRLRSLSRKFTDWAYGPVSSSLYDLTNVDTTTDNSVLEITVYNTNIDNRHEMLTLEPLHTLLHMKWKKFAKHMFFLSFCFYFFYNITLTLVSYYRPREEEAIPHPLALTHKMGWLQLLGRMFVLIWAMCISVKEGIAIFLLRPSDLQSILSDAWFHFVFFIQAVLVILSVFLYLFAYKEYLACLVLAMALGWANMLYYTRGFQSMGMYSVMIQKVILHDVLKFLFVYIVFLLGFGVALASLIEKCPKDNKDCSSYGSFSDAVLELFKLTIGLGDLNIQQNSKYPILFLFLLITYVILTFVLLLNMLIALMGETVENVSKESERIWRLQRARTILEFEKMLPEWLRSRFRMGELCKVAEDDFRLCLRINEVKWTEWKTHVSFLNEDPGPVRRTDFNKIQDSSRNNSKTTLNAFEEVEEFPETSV
Sequence of UniProt P9WIL3 (whole entry, looked up): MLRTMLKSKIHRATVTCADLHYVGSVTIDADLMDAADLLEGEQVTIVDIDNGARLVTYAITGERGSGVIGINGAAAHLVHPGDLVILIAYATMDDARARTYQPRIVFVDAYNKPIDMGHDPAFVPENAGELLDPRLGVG

CCCc1cc(O)c2c(c1)OC(C)(C)[C@@H]1CCC(C)=C[C@@H]21  Hill coefficient (TRPV3 (Homo sapiens, UniProt Q8NET8, N561A); calcium uptake, agonist; HEK293S; mutant N561A, site 1): 2.95 ± 0.42
CC(C)c1ccc(Sc2ccc3nnc(C(F)(F)F)n3n2)cc1  remaining activity (Grin3a/Grin1 (Mus musculus, UniProt A2AIR5+P35438); control response, whole-cell patch clamp; mouse brain slice interneurons; 20 µM): 290 ± 50%
CCOC(F)(F)c1nnc2cnc(-c3cnc(OCC(F)(F)F)c(F)c3)cn12  Hill slope (SCN2A (Homo sapiens, UniProt Q99250); peak sodium current, blocker, patch clamp; tonic block): 13700
Cl.N#Cc1ccc(C(=O)N[C@H]2CC[C@@]3(O)[C@H]4Cc5ccc(O)c6c5[C@@]3(CCN4CC3CC3)[C@H]2O6)s1  selectivity ratio (OPRD1; radioligand binding; CHO membranes; baseline: Ki µ over Ki δ): 42.2
O=C1NC(=O)C2(CCc3ccc(Cl)cc32)C(=O)N1  Emax (GABA-A receptor; alpha-1/beta-3/gamma-2; 300 µM): 15%
c1ccc2cc([C@]34CNC[C@H]3C4)ccc2c1  dopamine uptake (SLC6A3 (Homo sapiens, UniProt Q01959); inhibitor, [3H]dopamine uptake; 1 nM; baseline: no inhibitor): 132% and 107% and 101%
Cn1cc2cc(C(F)(F)c3nnc4ccc(-c5cnn(C6CC6)c5)nn34)c(F)cc2n1  Kd fold change (MET (Homo sapiens, UniProt P08581, C1091S/C1146S/D1228V/K1232C); concentration not given; baseline: wild type): not detected
Cc1onc(O)c1C[C@H](N)C(=O)O  inhibition (AMPA glutamate receptor (rat); radioligand binding; rat brain; 1×10 µM): 98.9%
O=C1NC(=O)C2(CCc3ccc(F)cc32)C(=O)N1  Emax (GABA-A receptor; alpha-1/beta-3/gamma-2; 300 µM): 7%
Oc1ccc2c3c1O[C@H]1[C@@H](O)CC[C@@]4(O)[C@@H](C2)N(CC2CCC2)CC[C@]314  log2 fold change (GPRC5C (Homo sapiens, UniProt Q9NQ84); β-arrestin recruitment, TANGO luminescence; concentration not given; baseline: basal luminescence): 0.23
CCC(C(=O)c1ccc2c(c1)OCO2)N(C)C (stereo not drawn)  EC50 (Slc6a3 (Rattus norvegicus, UniProt P23977); substrate release, releaser; rat brain synaptosomes; together with: [3H]MPP+ 9 nM): inactive
Nc1ncnc2c1ncn2[C@@H]1O[C@H](COP(=O)(O)OP(=O)(O)OP(=O)(O)O)[C@@H](O)[C@H]1O  Km (MET (Homo sapiens, UniProt P08581); substrate): 40 µM
COc1cc(CCNC(C)c2ccccc2O)c(OC)cc1C#N (single isomer, unassigned; (-))  Emax (HTR2A (Homo sapiens, UniProt P28223); receptor activation, agonist): 93%
CC(C)N(CCC(C(N)=O)(c1ccccc1)c1ccccn1)C(C)C (stereo not drawn)  inhibition (Genome polyprotein, NS3 helicase domain (Hepatitis C virus genotype 1b, UniProt Q9WMX2); DNA binding, inhibitor; hepatitis C virus; 100 µM, together with: Cy5-dT15 DNA): 0%
CNCCc1c[nH]c2ccccc12  Km (NMT from Rhinella marina; 10 min, 30 °C): 37 ± 9.5 µM
Brc1ccc2c(c1)C(c1ccccn1)=NCc1c(-c3cnco3)ncn1-2  selectivity ratio (GABRG2/GABRA2, with β3 subunit (Homo sapiens, UniProt P18507+P47869); [3H]flunitrazepam binding; baseline: α2β3γ2 over α1β3γ2 GABA-A): 1.93
CCCCCCC(C)(C)c1ccc([C@@H]2C[C@H](O)CC[C@H]2CCCO)c(O)c1  Emax (CNR1 (Homo sapiens, UniProt P21554, F170A); Gαi1 engagement, agonist, BRET; TM2 mutant F170A; baseline: wild type receptor): 53 ± 5.6%
CC(=O)S(=O)(=O)c1ccc(C(=O)N[C@H]2CC[C@@]3(O)[C@H]4Cc5ccc(O)c6c5[C@@]3(CCN4CC3CC3)[C@H]2O6)s1.Cl  selectivity ratio (OPRD1; radioligand binding; CHO membranes; baseline: Ki µ over Ki δ): 23.7
Cc1ccc2c(c1)C1(CC2)C(=O)NC(=S)NC1=O  Emax (GABA-A receptor; alpha-1/beta-3/gamma-2; 300 µM): 2%
O=C(O)c1nccnc1NC(=O)c1cccc2ccccc12  inhibition (Aspartate 1-decarboxylase (panD, Mycobacterium tuberculosis, UniProt P9WIL3); enzyme activity; 2.5 µM, 40 min, 298 K): ~50%
COc1ccc2c(c1)C1(CC2)C(=O)NC(=S)NC1=O  Emax (GABA-A receptor; alpha-1/beta-3/gamma-2; 300 µM): 20%
Cc1ccc(C(=O)Nc2ccc(Oc3cc4cnn(C)c4cc3-c3cn[nH]c3)c(F)c2)c(=O)n1-c1ccc(F)cc1  Kd fold change (MET (Homo sapiens, UniProt P08581, C1091S/C1146S/F1200I/K1232C); concentration not given; baseline: wild type): ≤ 1.5 fold
CN[C@@]1(c2ccccc2Cl)CCCCC1=O  inhibition (CHRNA7 (Homo sapiens, UniProt P36544); radioligand binding, antagonist, radioligand displacement; 30 µM): 1%
CCC1(c2cccc(O)c2)CCCCN(C)C1 (stereo not drawn)  koff (Nuclear receptor subfamily 2 group C member 2, ligand-binding domain (Homo sapiens, UniProt P49116); SPR imaging; 600 nM): 8.68e-06 s⁻¹
O=C1NC(=O)C2(CCc3ccccc32)C(=O)N1  Emax (GABA-A receptor; alpha-1/beta-3/gamma-2; 300 µM): -2%
CN1CC[C@@]2(C)c3cc(OC(=O)Nc4ccccc4)ccc3N(C)[C@@H]12  inhibition (human nicotinic α2β2 receptor; radioligand binding; 10 µM, together with: [3H]epibatidine): 3.4%
O=C1NC(=O)C2(CCc3ccc(Br)cc32)C(=O)N1  Emax (GABA-A receptor; alpha-1/beta-3/gamma-2; 300 µM): 5%
CCOc1ccccc1C(=O)Nc1ccc(Cl)c(C(F)(F)F)c1  SPR binding response (KAT5 (Homo sapiens, UniProt Q92993); SPR; 0.0078 µM; higher = more binding): 0.133 RU
COc1ccc2c(c1)C1(CC2)C(=O)NC(=O)N(C)C1=O (stereo not drawn)  Emax (GABA-A receptor; alpha-1/beta-3/gamma-2; 300 µM): 36%
Cl.O=C(N[C@H]1CC[C@@]2(O)[C@H]3Cc4ccc(O)c5c4[C@@]2(CCN3CC2CC2)[C@H]1O5)c1ccc(Br)s1  selectivity ratio (OPRD1; radioligand binding; CHO membranes; baseline: Ki µ over Ki δ): 80.8

Repeated from above:
COc1ccc2c(c1)C1(CC2)C(=O)NC(=S)NC1=O  Emax (GABA-A receptor; alpha-1/beta-3/gamma-2; 300 µM): 20%
Cc1ccc(C(=O)Nc2ccc(Oc3cc4cnn(C)c4cc3-c3cn[nH]c3)c(F)c2)c(=O)n1-c1ccc(F)cc1  Kd fold change (MET (Homo sapiens, UniProt P08581, C1091S/C1146S/F1200I/K1232C); concentration not given; baseline: wild type): ≤ 1.5 fold
CN[C@@]1(c2ccccc2Cl)CCCCC1=O  inhibition (CHRNA7 (Homo sapiens, UniProt P36544); radioligand binding, antagonist, radioligand displacement; 30 µM): 1%
CCC1(c2cccc(O)c2)CCCCN(C)C1 (stereo not drawn)  koff (Nuclear receptor subfamily 2 group C member 2, ligand-binding domain (Homo sapiens, UniProt P49116); SPR imaging; 600 nM): 8.68e-06 s⁻¹
O=C1NC(=O)C2(CCc3ccccc32)C(=O)N1  Emax (GABA-A receptor; alpha-1/beta-3/gamma-2; 300 µM): -2%
